{"data": "Results from different studies", "note": "Parts stem from different laboratories: compare values within a part only. Changes are numbered by the printed parent chain."}
{"data": "Block 1", "target": "RNA binding protein fox-1 homolog 2, RRM domain, GST-SBP tag (RBFOX2, Homo sapiens, UniProt O43251-10, residues 100-194)", "technique": "RNA Bind-n-Seq", "molecule type": "RNA", "matrix": "in vitro", "tested at": "365 nM", "setting": "natural RNA segment, single round, ends assumed", "reference": "no-protein control", "reading": "higher = stronger binding", "Residues (chain)": "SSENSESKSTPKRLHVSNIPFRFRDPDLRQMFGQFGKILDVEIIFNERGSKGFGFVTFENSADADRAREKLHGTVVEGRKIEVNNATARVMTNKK"}
{"Strand": "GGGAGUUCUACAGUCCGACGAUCUCUUGAUUUUACAGGUGAGGGUGGUUGCCAAAGGUGAUAAGAAAAGCAGCCAACAGGCUCCCUCUCACUUAAGAGAGUUCUAAUUAAUAACACUAAAUUCUUCCUGAGAAUGGAAUUCUCGGGUGCCAA", "RBNS enrichment (R)": 0.47}
{"Strand": "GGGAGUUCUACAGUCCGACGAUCGUCUCUAGUCCUAACUUUUAAAGAUCUAAGGUUCCUUGGAAGUUAUUUGAAGGCCAAGAGACCUUUGCUCUGCUGUGUGAGUCAGCCAGUCAAAAGCCCAGAAAGGCAAAUGGAAUUCUCGGGUGCCAA", "RBNS enrichment (R)": 0.343}
{"Strand": "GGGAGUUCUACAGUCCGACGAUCAAUGAGCAGUUCGCUCCUCCCUGAUAAGAGUUGUCCCAAAGGGUCGCUUAAGGAAUCUGCCCCACAGCUUCCCCCAUAGAAGGAUUUCAUGAGCAGAUCAGGACACUUAGUGGAAUUCUCGGGUGCCAA", "RBNS enrichment (R)": 0.261}
{"Strand": "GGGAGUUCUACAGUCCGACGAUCUAUUCAGGAAUUGCAGAGAAAUGCAUUUUCACAGAAAUCAAGAUGUUAUUUUUGUAUACUAUAUCACUUAGACAACUGUGUUUCAUUUGCUGUAAUCAGUUUUUAAAAGUUGGAAUUCUCGGGUGCCAA", "RBNS enrichment (R)": 0.464}
{"Strand": "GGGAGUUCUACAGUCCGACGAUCUCUAGCCUGCUGUGGAAGGAAACAACGUGACUCAAGAUGAAGCUGUUUGUAUGUAUCCUUAUCAAAUAUAUUCUAUAAGGAAAUAAAAUCUGAAAAGUGACUUUCUUAUUUGGAAUUCUCGGGUGCCAA", "RBNS enrichment (R)": 0.923}
{"Strand": "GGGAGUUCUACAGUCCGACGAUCCCCUCCCGCCCCGGGUCUGACGGGGGUGCGCCCCCGGCUCGGGCUCACUCCCACUAUCUCUACGGACACAUGCUCUCCGCCUUCCGGGACUAGCCACGGCCCCCAGGGCGUGGAAUUCUCGGGUGCCAA", "RBNS enrichment (R)": 0.554}
{"Strand": "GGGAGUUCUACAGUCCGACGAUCUAUAAACACGAUGUUAUUUUUCUUUACAAAAGCAAAAAAAUAAAAACCGUACCAACCUUUGACUUGUUCAGGCUGUGUUUUCUUUGUUUGCUGGGCUAGCCCUCUGGGGGUGGAAUUCUCGGGUGCCAA", "RBNS enrichment (R)": 0.512}
{"Strand": "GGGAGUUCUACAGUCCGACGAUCACUUUGUAUUGCCCACUCAUUUGUAUAAGUGCGCUUCGGUACAGCACGGGUCCUGCUCCCGCGAUGUGGAAGUGUCACACGGCACCUGUACAAAAAGACUGGCUAACCCCUGGAAUUCUCGGGUGCCAA", "RBNS enrichment (R)": 0.384}
{"Strand": "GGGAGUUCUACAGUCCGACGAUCGGUCCUCUCUUCUCUUCCCCGGGGAGAGAAUAAGGGCUCACUAAGCAGAGGAACCCACUUAGAGGAAGGAAAAGCACAAACUCCCUAAGGAAUGUAUCACAGACCGUCACUGGAAUUCUCGGGUGCCAA", "RBNS enrichment (R)": 0.552}
{"data": "Block 2", "target": "CCNF, cyclin fold, Cln2 fusion (human)", "technique": "yeast growth competition, sequencing", "matrix": "yeast", "setting": "weak parent motif", "reference": "not given", "reading": "higher = stronger binding", "starting sequence": "MASTL docking peptide (human); PMIAKNLMCELDE"}
{"Substitution": "PMIAENLMCELDE [K5E]", "normalised enrichment score": -0.439}
{"Substitution": "PMISKNLMCELDE [A4S]", "normalised enrichment score": -0.219}
{"Substitution": "PMIAQNLMCELDE [K5Q]", "normalised enrichment score": -0.287}
{"Substitution": "PMIFKNLMCELDE [A4F]", "normalised enrichment score": -0.203}
{"Substitution": "PTIAKNLMCELDE [M2T]", "normalised enrichment score": 0.0508}
{"Substitution": "PRIAKNLMCELDE [M2R]", "normalised enrichment score": 0.272}
{"Substitution": "PMIAKNLMCEYDE [L11Y]", "normalised enrichment score": -0.121}
{"Substitution": "PMIAGNLMCELDE [K5G]", "normalised enrichment score": -0.444}
{"Substitution": "PMIAYNLMCELDE [K5Y]", "normalised enrichment score": -0.164}
{"Substitution": "PMIAKNLMCEHDE [L11H]", "normalised enrichment score": -0.24}
{"Substitution": "PMIYKNLMCELDE [A4Y]", "normalised enrichment score": 0.0164}
{"Substitution": "PMIAKNLMCELFE [D12F]", "normalised enrichment score": 0.313}
{"Substitution": "PMIAKLLMCELDE [N6L]", "normalised enrichment score": -0.276}
{"Substitution": "PFIAKNLMCELDE [M2F]", "normalised enrichment score": 0.138}
{"Substitution": "PMIAKNLGCELDE [M8G]", "normalised enrichment score": -0.135}
{"Substitution": "PMIAKNLMCETDE [L11T]", "normalised enrichment score": 0.239}
{"Substitution": "PMIAKNLMCEEDE [L11E]", "normalised enrichment score": -0.138}
{"Substitution": "PMIAKNLMCFLDE [E10F]", "normalised enrichment score": 0.275}
{"Substitution": "PVIAKNLMCELDE [M2V]", "normalised enrichment score": -0.0158}
{"Substitution": "PMIAKQLMCELDE [N6Q]", "normalised enrichment score": 0.213}
{"Substitution": "PDIAKNLMCELDE [M2D]", "normalised enrichment score": -0.0449}
{"Substitution": "PMIAKNKMCELDE [L7K]", "normalised enrichment score": 0.169}
{"Substitution": "PMWAKNLMCELDE [I3W]", "normalised enrichment score": -0.0414}
{"Substitution": "PMIAKNLMNELDE [C9N]", "normalised enrichment score": -0.0826}
{"Substitution": "PMMAKNLMCELDE [I3M]", "normalised enrichment score": -0.312}
{"data": "Block 3", "target": "Fragile X messenger ribonucleoprotein 1, C-terminal low-complexity region (Fmr1, Mus musculus, UniProt P35922)", "technique": "RNA Bind-n-Seq", "molecule type": "RNA", "matrix": "in vitro", "tested at": "200 nM", "setting": "whole 134-nt RNA, ends assumed", "added": "150 mM LiCl", "reference": "input library", "reading": "higher = stronger binding", "library": "7-deaza-guanosine replaces G"}
{"Strand": "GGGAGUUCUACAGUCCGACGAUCUAUUCCAAUGUCUGUGGGAAUAAUUGACACAAGGACGAAUCCAAGCCAGUUAAAUGCGGUUGAAUUUCUGUGGGACCCAGCAAAACGCACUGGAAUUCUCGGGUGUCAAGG", "log2 enrichment": -0.228}
{"Strand": "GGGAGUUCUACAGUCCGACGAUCAGUCCUGUGCUACACAUCGUAUGUACCGAAUCGGGCCCCGGGGCCCCGGCCCCGGGGAAAGUAUUAUGUUACGCCGUUCGGAUCUGCACUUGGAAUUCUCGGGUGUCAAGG", "log2 enrichment": -3.5}
{"Strand": "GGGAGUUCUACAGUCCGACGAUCAGUCCUGUGCUACACAUCGUAUGUACCGAAUCGGGGCCCCGGGCCCCGGCCCCGGGGAAAGUAUUAUGUUACGCCGUUCGGAUCUGCACUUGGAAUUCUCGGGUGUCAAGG", "log2 enrichment": -2.97}
{"Strand": "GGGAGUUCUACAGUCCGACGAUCUUUAGCCUGUGGAAUGAUAGCAGUAGGGUCCUGCAAUGGAGAUGUAACUUCCACUAUCCUUCAGACCAUCAUGGAGAAGUCAGAGACUGAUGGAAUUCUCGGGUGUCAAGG", "log2 enrichment": -0.804}
{"Strand": "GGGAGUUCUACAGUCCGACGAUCAGUCCUGUGCUACACAUCGUAUGUACCGAAUCGGGGAGGGGUUUUUGGGGUUUGGGGAAAGUAUUAUGUUACGCCGUUCGGAUCUGCACUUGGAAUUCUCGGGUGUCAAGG", "log2 enrichment": -1.22}
{"Strand": "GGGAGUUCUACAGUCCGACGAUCUCAAGUCCUGUGCUACACAUCGUAUGUACCGAAUCGGAAAAAAAGGUGGAAAGGAAAGUAUUAUGUUACGCCGUUCGGAUCUGCACUUCCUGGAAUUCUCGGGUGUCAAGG", "log2 enrichment": -0.958}
{"Strand": "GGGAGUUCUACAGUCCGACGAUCUCAAGUCCUGUGCUACACAUCGUAUGUACCGAAUCGGGGCCGGCCGGGCCGGGGAAAGUAUUAUGUUACGCCGUUCGGAUCUGCACUUCCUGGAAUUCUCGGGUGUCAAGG", "log2 enrichment": 0.418}
{"Strand": "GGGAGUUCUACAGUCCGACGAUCUGGGAGGUGGAUUUUGUUUAUUUUUUUAGCUCAUUUCCAGGGGUGGUAAUUUUUUUUUAAUAUGUGUCAUGAAUAAAGUUGUUUUUGAAAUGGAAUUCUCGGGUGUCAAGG", "log2 enrichment": 0.101}
{"Strand": "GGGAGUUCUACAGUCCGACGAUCAGUCCUGUGCUACACAUCGUAUGUACCGAAUCGGAAAAAGGAAAAAAAGGAAAAAGGAAAGUAUUAUGUUACGCCGUUCGGAUCUGCACUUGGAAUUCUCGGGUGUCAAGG", "log2 enrichment": -2.07}
{"Strand": "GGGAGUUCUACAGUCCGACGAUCAGGCUAUGGAGGCUAUGAUGAUUACAAUGGCUAUAAUGAUGGCUAUGGAUUUGGGUCAGAUAGAUUUGGAAGAGGUAAGGUAAGAAUUGAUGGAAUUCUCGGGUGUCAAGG", "log2 enrichment": -0.129}
{"Strand": "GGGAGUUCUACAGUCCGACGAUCAAUAACUGACGCUGCAUUUAAUUUUUUUGCCAGUUUAAAAUGUUUGUGUGUUUUUAUAGAUGAUUUUAACUGGUACAUAUUUUGAGUUAAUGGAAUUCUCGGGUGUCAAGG", "log2 enrichment": -3.36}
{"data": "Block 4", "target": "ABI1, truncated, D143A, DHFR fusion (Arabidopsis thaliana, UniProt P49597)", "technique": "DHFR PCA, dose-response", "matrix": "yeast", "setting": "Hill fit, mean, not affinity", "added": "(+)-ABA, dose series", "reading": "lower = more sensitive", "starting sequence": "PYL1, truncated, DHFR fusion (Arabidopsis thaliana, UniProt Q8VZS8); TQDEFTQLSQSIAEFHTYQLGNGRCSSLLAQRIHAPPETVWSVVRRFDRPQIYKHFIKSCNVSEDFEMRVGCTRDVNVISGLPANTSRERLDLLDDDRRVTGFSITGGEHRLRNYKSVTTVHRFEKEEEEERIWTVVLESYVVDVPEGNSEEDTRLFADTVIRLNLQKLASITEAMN"}
{"Substitution": "Y53T", "ABA EC50": "146 µM"}
{"Substitution": "V76C", "ABA EC50": "5.68 µM"}
{"Substitution": "F5G", "ABA EC50": "5.78 µM"}
{"Substitution": "F56T", "ABA EC50": "227 µM"}
{"Substitution": "Q2C", "ABA EC50": "1.78 µM"}
{"Substitution": "L169V", "ABA EC50": "251 µM"}
{"Substitution": "V62T", "ABA EC50": "3.61 µM"}
{"Substitution": "V70P", "ABA EC50": "1.44 µM"}
{"Substitution": "S80A", "ABA EC50": "118 µM"}
{"Substitution": "R163V", "ABA EC50": "90.6 µM"}
{"Substitution": "D3W", "ABA EC50": "3.36 µM"}
{"Substitution": "S27V", "ABA EC50": "911 µM"}
{"Substitution": "S104G", "ABA EC50": "321 µM"}
{"Substitution": "T6P", "ABA EC50": "2.92 µM"}
{"Substitution": "D159R", "ABA EC50": "252 µM"}
{"Substitution": "T17M", "ABA EC50": "12.8 µM"}
{"Substitution": "L8F", "ABA EC50": "4.1 µM"}
{"Substitution": "V145Q", "ABA EC50": "42.4 µM"}
{"Substitution": "D95T", "ABA EC50": "708 µM"}
{"Substitution": "F5K", "ABA EC50": "7.11 µM"}
{"Substitution": "R45E", "ABA EC50": "293 µM"}
{"Substitution": "R88T", "ABA EC50": "4.34 µM"}
{"Substitution": "K116S", "ABA EC50": "1.83 µM"}
{"Substitution": "I172G", "ABA EC50": "219 µM"}
{"Substitution": "F5L", "ABA EC50": "2 µM"}
